{"data": "Measurements collected from several papers", "target": "Serine/threonine-protein kinase Nek6 (NEK6, Homo sapiens, UniProt Q9HC98)", "note": "Values joined by “and” are separate records of one study, mostly repeats; a detail may differ."}
{"SMILES": "Cc1nc2c(F)cc(-c3nc(Nc4ccc(CNC(=O)CCCCCCC(=O)NO)cc4)ncc3F)cc2n1C(C)C", "assay": "enzyme activity, inhibitor", "setting": "1 µM", "quantity": "inhibition", "value": "30%"}
{"SMILES": "COc1c(Cl)cccc1Nc1c(-c2ccncc2C#C[C@@]2(C)CCCN2C(=O)/C=C/CN(C)C)[nH]c2c1C(=O)NCC2", "assay": "binding, competition with immobilised ligand", "setting": "3 µM", "quantity": "remaining binding", "value": "92%"}
{"SMILES": "Nc1ncc(-c2cc(-c3cnn(CC(F)(F)F)c3)ncc2F)nc1C(=O)NC1CNCC(F)C1 (stereo not shown)", "assay": "enzyme activity", "setting": "1 µM", "scale": "baseline: DMSO control", "quantity": "remaining activity", "value": "102%"}
{"SMILES": "C=CC(=O)Nc1cccc(-c2cnc3[nH]cc(C(=O)NC(C)(C)C)c3n2)c1", "assay": "enzyme activity, inhibitor", "setting": "0.1 µM", "quantity": "inhibition", "value": "3%"}
{"SMILES": "CCN1CCN(Cc2ccc(C(=O)Nc3ccc(C)c(NCc4cnc5[nH]ccc5c4OC)c3)cc2C(F)(F)F)CC1", "assay": "binding, competition with immobilised ligand", "setting": "1 µM", "quantity": "remaining binding", "value": "95%"}
{"SMILES": "COCC12C(=O)NC3C4(C(OC)CC1O)C1CC5(O)C(OC)C(O)C(OC(C)=O)(C1C5OC(=O)c1ccccc1)C3(O)C(OC)C24 (stereo not shown)", "assay": "kinase activity, inhibitor, ProQinase kinase profiling", "setting": "25 µM", "scale": "baseline: control", "quantity": "remaining activity", "value": "114% and 106%"}
{"SMILES": "COc1ccc(NC(=O)Nc2ccc3c(c2)C(=O)N(C(C)CO)CC(C)C(CN(C)Cc2ccc4c(c2)OCO4)O3)cc1 (stereo not shown)", "assay": "kinase activity, KinaseProfiler", "setting": "0.03 µM, species human", "scale": "baseline: control", "quantity": "remaining activity", "value": "94%"}
{"SMILES": "Cc1cccc(-c2ccc3nc(NC(=O)C4CCOCC4)nn3c2)c1", "assay": "enzyme activity, Dundee kinase panel", "setting": "10 µM", "quantity": "remaining activity", "value": "83%"}
{"SMILES": "Cc1cccc(O[C@H]2CCC[C@@H](C(C)CNCc3ccncc3)C2)c1 (relative stereo)", "assay": "enzyme activity, inhibitor", "setting": "10 µM", "quantity": "inhibition", "value": "-4%"}
{"SMILES": "CNC1C[S+]2CC[S+]3CC[S+](C1)[Ru-4]321([N]=C=S)[n]2c3ccc(OC)cc3c3c4c(c5cc(F)c[n+]1c5c32)C(=O)NC4=O (stereo not shown)", "assay": "KinomeScan", "setting": "0.1 µM", "scale": "baseline: untreated", "quantity": "remaining binding", "value": "88%"}
{"SMILES": "COc1c(OCCCN2CCOCC2)ccc2c1N=C(NC(=O)c1cnc(N)nc1)N1CCN=C21", "assay": "kinase activity, inhibitor", "setting": "1 µM", "scale": "baseline: untreated control", "quantity": "remaining activity", "value": "114%"}
{"SMILES": "Nc1ncc2c(n1)-c1c([nH]c3ccc(C4=CCOCC4)cc13)CCC2", "assay": "binding, competition with immobilised ligand", "setting": "1 µM", "quantity": "remaining binding", "value": "88%"}
{"SMILES": "Nc1nc(Nc2ccccc2)sc1C(=O)c1ccccc1", "assay": "enzyme activity, inhibitor", "setting": "10 µM", "quantity": "remaining activity", "value": "60%"}
{"SMILES": "c1ccc2c(Nc3cc(C4CCC4)[nH]n3)nc(Nc3ccc4nc[nH]c4c3)nc2c1", "assay": "enzyme activity, inhibitor", "setting": "0.25 µM", "quantity": "remaining activity", "value": "91%"}
{"SMILES": "CN1CCN(Cc2ccc(-c3ccc(CO[C@H]4CCC[C@@H]4NC(=O)c4cc(-c5cnn(C)c5)cnc4N)cc3)cc2)CC1", "assay": "enzyme activity, inhibitor", "setting": "0.1 µM", "quantity": "inhibition", "value": "10%"}
{"SMILES": "NC(=O)[C@@H](O)C[C@H]1CCc2sc3ncnc(O[C@H]4CC[C@H](N5CCOCC5)CC4)c3c21", "assay": "enzyme activity, inhibitor", "setting": "10 µM", "quantity": "inhibition", "value": "1%"}
{"SMILES": "CN1C[C@@H](c2c[nH]c3cc(Br)ccc23)NC[C@@H]1c1c[nH]c2cc(Br)ccc12", "assay": "enzyme activity, inhibitor", "setting": "10 µM", "quantity": "remaining activity", "value": "108%"}
{"SMILES": "COc1cc(Nc2nccc(-c3cnn4nc(OC)ccc34)n2)cc(C(F)(F)F)c1", "assay": "binding, competition with immobilised ligand", "setting": "1 µM", "quantity": "remaining binding", "value": "69%"}
{"SMILES": "Cc1cccc(-c2ccc3nc(NC(=O)C4CCCO4)nn3c2)c1 (stereo not shown)", "assay": "enzyme activity, Dundee kinase panel", "setting": "10 µM", "quantity": "remaining activity", "value": "84%"}
